Measurements gathered from unrelated publications.
Protocols differ between the studies behind these lines. ± marks the error that the study gave.
OPRD1: Delta-type opioid receptor (OPRD1, Homo sapiens, UniProt P41143)
Sequence of UniProt P41143 (whole entry, looked up): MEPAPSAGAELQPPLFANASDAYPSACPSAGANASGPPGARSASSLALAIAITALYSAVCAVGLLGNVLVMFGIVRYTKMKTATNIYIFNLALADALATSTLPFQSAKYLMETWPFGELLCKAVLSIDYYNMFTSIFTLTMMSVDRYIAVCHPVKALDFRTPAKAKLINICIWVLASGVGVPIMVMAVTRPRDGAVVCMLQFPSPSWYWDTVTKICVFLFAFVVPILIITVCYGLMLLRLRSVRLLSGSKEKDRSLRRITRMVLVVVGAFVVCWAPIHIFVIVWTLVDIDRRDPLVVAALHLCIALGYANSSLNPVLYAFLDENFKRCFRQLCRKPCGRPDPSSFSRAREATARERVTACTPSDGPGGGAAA
Sequence of UniProt P35372 (whole entry, looked up): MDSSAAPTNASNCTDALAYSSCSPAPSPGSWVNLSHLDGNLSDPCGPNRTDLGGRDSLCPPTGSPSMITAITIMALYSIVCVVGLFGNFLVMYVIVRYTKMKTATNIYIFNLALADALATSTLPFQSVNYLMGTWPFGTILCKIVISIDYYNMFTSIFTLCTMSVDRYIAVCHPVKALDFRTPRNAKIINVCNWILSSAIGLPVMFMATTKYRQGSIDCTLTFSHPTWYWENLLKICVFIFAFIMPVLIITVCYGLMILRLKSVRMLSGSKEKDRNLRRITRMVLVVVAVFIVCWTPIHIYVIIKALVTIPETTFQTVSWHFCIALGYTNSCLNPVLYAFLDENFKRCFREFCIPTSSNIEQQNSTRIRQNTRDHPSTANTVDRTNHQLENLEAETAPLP
Sequence of UniProt P48546 (whole entry, looked up): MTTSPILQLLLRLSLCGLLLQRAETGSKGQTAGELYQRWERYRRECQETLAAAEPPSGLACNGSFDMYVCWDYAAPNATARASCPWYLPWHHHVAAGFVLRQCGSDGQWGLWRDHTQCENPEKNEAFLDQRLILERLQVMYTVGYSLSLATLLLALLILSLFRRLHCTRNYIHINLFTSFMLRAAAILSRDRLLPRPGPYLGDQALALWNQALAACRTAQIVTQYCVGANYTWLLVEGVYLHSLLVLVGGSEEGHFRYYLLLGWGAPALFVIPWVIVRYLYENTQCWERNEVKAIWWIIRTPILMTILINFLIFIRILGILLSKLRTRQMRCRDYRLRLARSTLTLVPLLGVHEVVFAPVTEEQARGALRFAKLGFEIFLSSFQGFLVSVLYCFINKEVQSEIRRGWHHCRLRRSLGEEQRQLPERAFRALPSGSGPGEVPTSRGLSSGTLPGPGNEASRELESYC
Sequence of UniProt P43220 (whole entry, looked up): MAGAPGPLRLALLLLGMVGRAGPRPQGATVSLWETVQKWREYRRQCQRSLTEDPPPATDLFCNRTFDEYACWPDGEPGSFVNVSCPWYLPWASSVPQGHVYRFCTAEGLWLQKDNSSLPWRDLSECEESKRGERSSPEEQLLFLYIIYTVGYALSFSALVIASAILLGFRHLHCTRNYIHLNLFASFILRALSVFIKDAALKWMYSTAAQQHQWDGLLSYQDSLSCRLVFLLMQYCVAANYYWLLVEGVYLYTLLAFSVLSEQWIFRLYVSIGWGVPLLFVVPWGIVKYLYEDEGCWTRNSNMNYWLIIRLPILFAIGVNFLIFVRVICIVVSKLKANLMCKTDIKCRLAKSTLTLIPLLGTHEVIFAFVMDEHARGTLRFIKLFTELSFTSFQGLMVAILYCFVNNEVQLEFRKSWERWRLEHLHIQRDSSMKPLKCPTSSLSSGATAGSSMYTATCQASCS
Sequence of UniProt A0A125YHX7 (whole entry, looked up): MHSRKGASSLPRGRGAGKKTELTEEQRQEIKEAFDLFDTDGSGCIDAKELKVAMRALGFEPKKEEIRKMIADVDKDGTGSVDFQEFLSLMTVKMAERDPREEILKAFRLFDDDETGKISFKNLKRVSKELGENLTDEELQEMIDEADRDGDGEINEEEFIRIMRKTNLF
Sequence of UniProt P04618 (whole entry, looked up): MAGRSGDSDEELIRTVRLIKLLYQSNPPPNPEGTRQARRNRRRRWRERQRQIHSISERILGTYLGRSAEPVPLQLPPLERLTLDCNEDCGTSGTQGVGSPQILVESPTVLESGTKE

SMILES = CC(C)C[C@H](NC(=O)[C@H](CO[C@@H]1O[C@H](CO)[C@@H](O[C@@H]2O[C@H](CO)[C@H](O)[C@H](O)[C@H]2O)[C@H](O)[C@H]1O)NC(=O)[C@H](CCCCN)NC(=O)[C@H](CC(C)C)NC(=O)CNC(=O)[C@H](CCCCN)NC(=O)[C@H](CCC(=O)O)NC(=O)CNC(=O)[C@H](CC(C)C)NC(=O)[C@H](CC(N)=O)NC(=O)[C@@H]1CCCN1C(=O)[C@H](CC(C)C)NC(=O)[C@H](Cc1ccccc1)NC(=O)CNC(=O)[C@H](NC(=O)[C@@H](N)Cc1ccc(O)cc1)[C@H](C)O)C(N)=O; target = OPRD1; assay = ligand displacement, radioligand; conditions = pH 7.5, cell membranes; quantity = Ki; value = 7 nM
SMILES = Cc1ccc(C)c(OCCn2cc(C(=O)O)c3ccccc32)c1; target = RAC1 (Homo sapiens, UniProt P63000, Q61L); assay = GTP binding, activator, flow cytometry bead; conditions = EDTA buffer, added: 100 nM BODIPY-GTP; quantity = EC50; value = 224 nM
SMILES = Cc1cc(O)cc(C)c1C[C@H](N)C(=O)NCC(=O)NCC(=O)N[C@@H](Cc1ccccc1)C(=O)N[C@H](C(=O)NCC(=O)N[C@@H](C)C(=O)N[C@@H](CCCNC(=N)N)C(=O)N[C@@H](CCCCN)C(=O)N[C@@H](CO)C(=O)N[C@@H](C)C(=O)N[C@@H](CCCNC(=N)N)C(=O)N[C@@H](CCCCN)C(N)=O)[C@@H](C)O; target = OPRM1 (Homo sapiens, UniProt P35372); assay = calcium mobilisation, agonist; system = CHO with Gαqi5; conditions = mu receptor; quantity = EC50; value = 16.6 nM
SMILES = CC(C)C[C@H](NC(=O)[C@H](CO)NC(=O)[C@H](CCCCN)NC(=O)[C@H](CC(C)C)NC(=O)CNC(=O)[C@H](CCCCN)NC(=O)[C@H](CCC(=O)O)NC(=O)CNC(=O)[C@H](CC(C)C)NC(=O)[C@H](CC(N)=O)NC(=O)[C@@H]1CCCN1C(=O)[C@H](CC(C)C)NC(=O)[C@H](Cc1ccccc1)NC(=O)CNC(=O)[C@H](NC(=O)[C@@H](N)Cc1ccc(O)cc1)[C@H](C)O)C(N)=O; target = OPRD1; assay = ligand displacement, radioligand; conditions = pH 7.5, cell membranes; quantity = Ki; value = 13 nM
SMILES = CC[C@H](C)[C@H](NC(=O)[C@H](CC(C)C)NC(=O)[C@H](CC(C)C)NC(=O)CNC(=O)[C@H](CCCCN)NC(=O)[C@H](C)NC(=O)[C@H](CC(C)C)NC(=O)[C@H](CC(C)C)NC(=O)[C@H](CCCCN)NC(=O)[C@H](Cc1c[nH]c2ccccc12)NC(=O)[C@@H](N)CC(N)=O)C(=O)N[C@@H](CCCNC(=N)N)C(=O)N[C@@H](CCC(=O)O)C(=O)N[C@@H](CCCNC(=N)N)C(=O)N[C@@H](CC(C)C)C(=O)N[C@@H](CCCCN)C(=O)N[C@@H](CCCNC(=N)N)C(=O)O; target = Centrin-1, C-terminal domain (CEN1, Toxoplasma gondii, UniProt A0A125YHX7); assay = isothermal titration calorimetry; conditions = pH 7.5, 25 °C, 5 mM EGTA; quantity = Kd; value = 50.1 ± 9.7 nM
SMILES = CCCCCCCCCCCCCCCC(=O)N[C@@H](CCC(=O)NCCCC[C@H](NC(=O)[C@H](CC(=O)O)NC(=O)[C@H](CO)NC(=O)[C@@H](NC(=O)[C@H](Cc1ccccc1)NC(=O)[C@@H](NC(=O)CNC(=O)[C@H](CCC(N)=O)NC(=O)[C@H](C)NC(=O)[C@@H](Cc1ccc(O)cc1)NC(C)=O)[C@@H](C)O)[C@@H](C)O)C(=O)N[C@@H](CO)C(=O)N[C@@H](CCCCN)C(=O)N[C@@H](Cc1ccc(O)cc1)C(=O)N[C@@H](CC(C)C)C(=O)N[C@@H](CC(=O)O)C(=O)N[C@@H](CCC(=O)O)C(=O)N[C@@H](CCCNC(=N)N)C(=O)N[C@@H](C)C(=O)N[C@@H](C)C(=O)N[C@@H](CCC(N)=O)C(=O)N[C@@H](CC(=O)O)C(=O)N[C@@H](Cc1ccccc1)C(=O)N[C@H](C(=O)N[C@@H](CCC(N)=O)C(=O)N[C@@H](Cc1c[nH]c2ccccc12)C(=O)N[C@@H](CC(C)C)C(=O)N[C@@H](CC(C)C)C(=O)N[C@@H](CCC(=O)O)C(=O)NCC(=O)NCC(=O)N1CCC[C@H]1C(=O)N[C@@H](CO)C(=O)N[C@@H](CO)C(=O)NCC(=O)N[C@@H](C)C(=O)N1CCC[C@H]1C(=O)N1CCC[C@H]1C(=O)N1CCC[C@H]1C(=O)N[C@@H](CO)C(N)=O)C(C)C)C(=O)O; target = GLP1R (Homo sapiens, UniProt P43220); assay = reporter gene, agonist, CRE-luciferase reporter; system = BHK cells; conditions = 3 h, 37 °C, 0% HSA; quantity = EC50; value = 0.0022 nM
SMILES = C[C@H](NC(=O)[C@H](C)NC(=O)[C@@H]1CCCN1C(=O)[C@@H](N)Cc1ccc(O)cc1)C(=O)N[C@@H](CO)C(=O)N[C@@H](Cc1ccc(O)cc1)C(=O)N[C@@H](CCCNC(=N)N)C(=O)O; target = Protein Rev (Human immunodeficiency virus type 1 group M subtype B, UniProt P04618); assay = binding, fluorescence polarization; system = HIV; conditions = added: fluorescein-labelled parent peptide; quantity = Kd; value = 217 ± 22 nM
SMILES = CC(C)C[C@H](NC(=O)[C@H](CO[C@@H]1O[C@H](CO)[C@@H](O)[C@H](O)[C@H]1O)NC(=O)[C@H](CCCCN)NC(=O)[C@H](CC(C)C)NC(=O)CNC(=O)[C@H](CCCCN)NC(=O)[C@H](CCC(=O)O)NC(=O)CNC(=O)[C@H](CC(C)C)NC(=O)[C@H](CC(N)=O)NC(=O)[C@@H]1CCCN1C(=O)[C@H](CC(C)C)NC(=O)[C@H](Cc1ccccc1)NC(=O)CNC(=O)[C@H](NC(=O)[C@@H](N)Cc1ccc(O)cc1)[C@H](C)O)C(N)=O; target = OPRD1; assay = ligand displacement, radioligand; conditions = pH 7.5, cell membranes; quantity = Ki; value = 7.1 nM
SMILES = CC[C@H](C)[C@H](NC(=O)[C@H](CCCN)NC(=O)[C@H](CC(=O)O)NC(=O)[C@H](CC(C)C)NC(=O)C(C)(CC(C)C)NC(=O)[C@@H](NC(=O)[C@H](CO)NC(=O)[C@H](Cc1ccc(O)cc1)NC(=O)[C@H](CC(=O)O)NC(=O)[C@H](CO)NC(=O)[C@@H](NC(=O)[C@H](Cc1ccccc1)NC(=O)[C@@H](NC(=O)CNC(=O)[C@H](CCC(=O)O)NC(=O)C(C)(C)NC(=O)[C@@H](N)Cc1ccc(O)cc1)[C@@H](C)O)[C@@H](C)CC)[C@@H](C)CC)C(=O)N[C@@H](Cc1c[nH]cn1)C(=O)N[C@@H](CCC(N)=O)C(=O)NC(C)(C)C(=O)N[C@@H](CC(=O)O)C(=O)N[C@@H](Cc1ccccc1)C(=O)N[C@H](C(=O)N[C@@H](CCC(=O)O)C(=O)N[C@@H](Cc1ccc(O)cc1)C(=O)N[C@@H](CCCCNC(=O)COCCOCCNC(=O)COCCOCCNC(=O)CC[C@H](NC(=O)CCCCCCCCCCCCCCCCCCC(=O)O)C(=O)O)C(=O)N[C@@H](CC(C)C)C(=O)N[C@@H](CCC(=O)O)C(=O)NCC(=O)NCC(=O)N1CCC[C@H]1C(=O)N[C@@H](CO)C(=O)N[C@@H](CO)C(=O)NCC(=O)N[C@@H](C)C(=O)N1CCC[C@H]1C(=O)N1CCC[C@H]1C(=O)N1CCC[C@H]1C(=O)N[C@@H](CO)C(N)=O)C(C)C (stereo partly drawn); target = GIPR (Homo sapiens, UniProt P48546); assay = cAMP, agonist; quantity = EC50; value = 0.012 nM

Excerpt of the above:
SMILES = CC(C)C[C@H](NC(=O)[C@H](CO)NC(=O)[C@H](CCCCN)NC(=O)[C@H](CC(C)C)NC(=O)CNC(=O)[C@H](CCCCN)NC(=O)[C@H](CCC(=O)O)NC(=O)CNC(=O)[C@H](CC(C)C)NC(=O)[C@H](CC(N)=O)NC(=O)[C@@H]1CCCN1C(=O)[C@H](CC(C)C)NC(=O)[C@H](Cc1ccccc1)NC(=O)CNC(=O)[C@H](NC(=O)[C@@H](N)Cc1ccc(O)cc1)[C@H](C)O)C(N)=O; target = OPRD1; assay = ligand displacement, radioligand; conditions = pH 7.5, cell membranes; quantity = Ki; value = 13 nM
